Results of several laboratories.
Numbered parts are unrelated; each lists some results of a single study. Positions count from the first letter of the parent shown.

Block 1 — target: UBE2W UBC core domain (UniProt Q96B02); technique: yeast two-hybrid; matrix: yeast; setting: mostly zero background; baseline: not given; reading: higher = stronger interaction; endpoint: lacZ reporter activity
B1: DZIP3 RING domain (UniProt Q86Y13); chain PDEEEEEEEPCVICHENLSPENLSVLPCAHKFHAQCIRPWLMQQGTCPTCRLHVLLPEEFP
B2: RNF121 RING domain (UniProt Q9H920); chain MPTKHLSDSVCAVCGQQIFVDVSEEGIIENTYRLSCNHVFHEFCIRGWCIVGKKQTCPYCKEKVDLKRMFS
B3: SYTL4 RING domain (UniProt Q96C24); chain RGSQHYSDRTCARCQESLGRLSPKTNTCRGCNHLVCRDCRIQESNGTWRCKVCAKEIELKKAT
B4: UBOX5 RING domain (UniProt O94941); chain EQPGSILGPECASCKRVFSPYFKKEPVYQLPCGHLLCRPCLGEKQRSLPMTCTACQRPVASQDVLR
Residues (chain): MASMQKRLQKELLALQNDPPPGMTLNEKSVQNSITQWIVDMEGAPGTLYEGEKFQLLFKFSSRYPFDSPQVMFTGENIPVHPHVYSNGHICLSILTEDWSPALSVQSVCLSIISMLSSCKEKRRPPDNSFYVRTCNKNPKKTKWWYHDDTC
YQNEVDDDLVCHICLQPLLQPLDTPCGHTFCYKCLRNFLQEKDFCPLDRKRLHFKLCKK (LNX2 RING domain (UniProt Q8N448)): 0
B1 (DZIP3 RING domain): 0
PEDRESLKSACVVCLSSFKSCVFLECGHVCSCTECYRALPEPKKCPICRQAITRVIPLY (MUL1 RING domain (UniProt Q969V5)): 12400
AVPSGLEENLCKICMDSPIDCVLLECGHMVTCTKCGKRMNECPICRQYVIRAVHVF (RFFL RING domain (UniProt Q8WZ73)): 14500
B2 (RNF121 RING domain): 0
KLRKLKEAMLCMVCCEEEINSTFCPCGHTVCCESCAAQLQSCPVCRSRVEHVQHVY (MYLIP RING domain (UniProt Q8WY64)): 0
B3 (SYTL4 RING domain): 0
B4 (UBOX5 RING domain): 0

Block 2 — target: CCNB1, cyclin fold, Cln2 fusion (human); technique: yeast growth competition, sequencing; matrix: yeast; setting: strong parent motif; baseline: not given; reading: higher = stronger binding; endpoint: normalised enrichment score; starting sequence: viral docking peptide; KGVKRKLFAEDSS
KGVKRKLFAEVSS [D11V]: 1.22
KGVKRPLFAEDSS [K6P]: 0.396
KGVKRKLFAEPSS [D11P]: 1.56
KGVKRKLFREDSS [A9R]: 1.77
KGVKRKLFAETSS [D11T]: 1.21
KKVKRKLFAEDSS [G2K]: 1.88
KGVKRKLFAIDSS [E10I]: 0.401
KGVKRKLFAEDVS [S12V]: 2.65

Block 3 — observed: peptide-MHC binding; molecule type: peptide; concentration: concentration not given; endpoint: binding
Target: HLA class I histocompatibility antigen, A alpha chain, allele A*80:01 (Homo sapiens, UniProt P04439)
LMTHTWHAK: inactive
RLKHIFLIF: inactive
TRAPAPFPL: inactive
KAIIDTAQF: inactive
GSRAYRNAL: inactive
ATEDPSSGY: inactive
KSAAIDGEY: inactive
WMFRIRIIL: inactive

Other studies, line by line
CCN(CC)CCOC(=O)C(O)(c1ccccc1)c1ccccc1 — viability (HaCaT; 100 µM, 36 h): 93%
